Results pooled from the literature.
± marks the error that the study gave.

For CCCC[C@@H]1NC(=O)[C@@H](NC(=O)[C@H](CCC(=O)O)NC(=O)CNC(=O)CN2CCN(CC(=O)O)CCN(CC(=O)O)CCN(CC(=O)O)CC2)CCCCNC(=O)C[C@@H](C(N)=O)NC(=O)[C@H](C(C)C)NC(=O)[C@@H]2CCCN2C(=O)[C@H](CCCNC(=N)N)NC(=O)CNC(=O)[C@H](Cc2c[nH]c3ccccc23)NC(=O)[C@H](CCCNC(=N)N)NC(=O)[C@@H](Cc2ccccc2)NC(=O)[C@H](Cc2c[nH]cn2)NC(=O)[C@H](CCC(=O)O)NC1=O [gallium-67 labelled], the tissue uptake was 0.23 ± 0.01 %ID/g (C57 mice with B16/F1 melanoma, liver; intravenous, 2 h).
With CN1C(=O)[C@@H](Cc2ccc(O)c(I)c2)NC(=O)CNC(=O)[C@H](Cc2ccc3ccccc3c2)NC(=O)[C@H](CCCNC(=N)N)NC(=O)[C@H]1CCCNC(=O)c1ccc(CNC(=O)CN2CCN(CC(=O)O)CCN(CC(=O)O)CCN(CC(=O)O)CC2)cc1 [lutetium-177 labelled] the tissue uptake was 0.9 ± 0.3 %ID/g (item: 177Lu radioactivity; female CB-17 SCID mice, Daudi xenograft, heart; intravenous, 0.16 nmol per mouse, 1 h).
CC(C)[C@H](NC(=O)[C@@H]1CCCN1C(=O)[C@H](CCCNC(=N)N)NC(=O)[C@H](CS)NC(=O)[C@H](Cc1c[nH]c2ccccc12)NC(=O)[C@H](CCCNC(=N)N)NC(=O)[C@@H](Cc1ccccc1)NC(=O)[C@H](Cc1c[nH]cn1)NC(=O)[C@H](CCC(=O)O)NC(=O)[C@H](CS)NC(=O)[C@H](CS)NC(=O)CNC(=O)[C@@H]1CC(=O)N[C@@H](CCCNC(=N)N)C(=O)NCC(=O)N[C@@H](CC(=O)O)C(=O)N[C@H](Cc2ccc(O)cc2)C(=O)N1)C(N)=O [technetium-99m labelled] has a tissue uptake of 1 ± 0.39 %ID/g (C57 mouse, female, B16/F1 melanoma, skin; intravenous, 0.037 MBq, 4 h).
With OCc1cn(Cc2ccc(-c3noc(-c4ccc(OCC[18F])c(C(F)(F)F)c4)n3)cc2)nn1 the tissue uptake was 1.27 ± 0.08 %ID/g (female Lewis rat, spleen; intravenous, 60 min).
For CCCC[C@H](NC(=O)CNC(=O)CNC(=O)CN1CCN(CC(=O)O)CCN(CC(=O)O)CCN(CC(=O)O)CC1)C(=O)N[C@H]1CC(=O)NCCCC[C@@H](C(N)=O)NC(=O)[C@H](Cc2c[nH]c3ccccc23)NC(=O)[C@H](CCCNC(=N)N)NC(=O)[C@@H](Cc2ccccc2)NC(=O)[C@H](Cc2c[nH]cn2)NC1=O [lead-203 labelled], the tissue uptake was 0.01 ± 0.01 %ID/g (C57 mouse, muscle; intravenous, 0.056 MBq, 4 h).
O=C([O-])CN1CCN(CC(=O)[O-])CCN(CC(=O)[O-])CCN(CC(=O)[O-])CC1.[64Cu+2] has a tissue uptake of 0.55 %ID/g (nude athymic mice, healthy, femur; intravenous, 4 h, 64Cu label).
O=C(O)C1CN(Cc2ccc(-c3noc(-c4ccc(OCC[18F])c(C(F)(F)F)c4)n3)cc2)C1 has a tissue uptake of 0.445 ± 0.03 %ID/g (male Sprague-Dawley rat, heart; intravenous, 30 min).
CN(C)c1ccc(-c2nc3ccc(OCCCCCN4CCN5CCN(CC4)CC(=O)[O][Al]([18F])[O]C(=O)C5)cc3s2)cc1 gave a tissue uptake of 1.38 ± 0.45 %ID/g (ICR mouse, bone; intravenous, 30 min).
The tissue uptake of CCCC[C@H](NC(=O)CNC(=O)CNC(=O)CN1CCN(CC(=O)O)CCN(CC(=O)O)CCN(CC(=O)O)CC1)C(=O)N[C@H]1CC(=O)NCCCC[C@@H](C(N)=O)NC(=O)[C@H](Cc2c[nH]c3ccccc23)NC(=O)[C@H](CCCNC(=N)N)NC(=O)[C@@H](Cc2ccccc2)NC(=O)[C@H](Cc2c[nH]cn2)NC1=O [gallium-67 labelled] is reported as 0.85 ± 0.02 %ID/g (female C57 mice, B16/F1 melanoma, liver; intravenous, 0.037 MBq, 4 h).
C[C@H](CN(C)Cc1ccccc1)NC(=O)c1ccc(-c2noc(C(F)(F)[18F])n2)cc1 has a tissue uptake of 0.48 ± 0.18 SUV (PET imaging; female Sprague-Dawley rats, heart; intravenous, 60 min).
With O=C([O-])CN1CCN(CC(=O)[O-])CCN(CC(=O)NCCc2ccc3c(c2)C2C=CCC2C(c2cc4c(cc2Br)OCO4)N3)CCN(CC(=O)[O-])CC1.[111In+3] (centres unmarked) the tissue uptake was 3.04 ± 0.73 %ID/g (mouse, Hec50 endometrial tumour, liver; 4 h post injection).
